Measurements gathered from unrelated publications.
Compare with care: the assays were run in different laboratories. ± gives the spread as reported.

CC(=O)Oc1ccc(/C=C/C(=O)Nc2nc(=O)n([C@@H]3O[C@H](C)[C@@H](OC(C)=O)[C@H]3OC(C)=O)cc2F)c(OC(C)=O)c1
IC50 (NHDF; MTT; 72 h, 10% FBS): 116 ± 2.71 µM

Nc1ccn(C2OC(CO)C3CC=CCC32)c(=O)n1 (mixture of isomers)
IC50 (PHA-stimulated human PBM cells, uninfected; cytotoxicity; 6 days): > 100 µM

CC(=O)O[C@@H]1[C@H](OC(C)=O)[C@@H](C)O[C@H]1n1cc(F)c(NC(=O)/C=C/c2ccc(O)c(O)c2)nc1=O
IC50 (NHDF; MTT; 72 h, 10% FBS): 163 ± 4.33 µM

CCCCn1cc(C(=O)O)c(=O)c2cc(F)c3c(nnn3-c3ccccc3OC)c21
IC50 (A375-S2; cell growth, SRB; 72 h): 12.5 ± 1.26 µg/mL

CC(C)=CCOc1ccc(-c2coc3cc4c(c(O)c3c2=O)C=CC(C)(C)O4)cc1
IC50 (NHDF; cell growth or viability, MTT; 24 h): > 100 µM

COc1ccc(-c2nn(-c3ccccc3)cc2/C=C(\C#N)c2nc3ccccc3[nH]2)cc1
IC50 (MRC5; cell growth or viability, ATP luminescence; 72 h): > 100 µM

O=C(/C=C/c1ccccc1)Oc1ccc2c(c1)O/C(=C\C=C\c1ccccc1)C2=O
IC50 (HEK-293T; cell growth or viability, MTT; 72 h): 37.1 µM

CCCCn1cc(C(=O)O)c(=O)c2cc(F)c(Nc3cccc(OC)c3)c([N+](=O)[O-])c21
IC50 (A375-S2; cell growth, SRB; 72 h): 174 ± 25.8 µg/mL

N#C/C(=C\c1cn(-c2ccccc2)nc1-c1ccc([N+](=O)[O-])cc1)c1nc2ccccc2[nH]1
IC50 (MRC5; cell growth or viability, ATP luminescence; 72 h): > 100 µM

CCCCn1cc(C(=O)O)c(=O)c2cc(F)c(Nc3cc(OC)c(OC)c(OC)c3)c([N+](=O)[O-])c21
IC50 (A375-S2; cell growth or viability, SRB): 56.2 µM

COc1cc(-c2coc3cc(O)cc(O)c3c2=O)ccc1O
IC50 (NHDF; cell growth or viability, MTT; 24 h): > 100 µM

Nc1nc(Cl)nc2c1ncn2C1OC(CO)C2CC=CCC21 (mixture of isomers)
IC50 (PHA-stimulated human PBM cells, uninfected; cytotoxicity; 6 days): > 100 µM

N#C/C(=C\c1cn(-c2ccccc2)nc1-c1ccccc1)c1nc2ccccc2[nH]1
IC50 (MRC5; cell growth or viability, ATP luminescence; 72 h): > 100 µM

CCCCn1cc(C(=O)O)c(=O)c2cc(F)c(Nc3ccccc3OC)c([N+](=O)[O-])c21
IC50 (MCF7; cell growth, SRB; 72 h): 30.4 ± 0.92 µg/mL

Oc1c(Cl)cc(Cl)c2cccnc12
IC50 (MRC5; cell growth or viability, MTT; 48 h): 28 µM

COc1cc(OC)c(-c2coc3c(CC=C(C)C)c(OC)cc(O)c3c2=O)cc1OC
IC50 (NHDF; cell growth or viability, MTT; 24 h): > 100 µM

CC(=O)OCC1OC(n2cc(C=CBr)c(=O)[nH]c2=O)C2CC=CCC12 (mixture of isomers)
IC50 (PHA-stimulated human PBM cells, uninfected; cytotoxicity; 6 days): > 100 µM

O=[N+]([O-])c1c(Br)c(Cl)c2cccnc2c1O
IC50 (L02; cell growth or viability, CCK-8; 48 h): ~49.6 µg/mL

CCCCn1cc(C(=O)O)c(=O)c2cc(F)c3c(nnn3-c3ccc(OC)cc3)c21
IC50 (MCF7; cell growth or viability, SRB): 431 µM

CCCCn1cc(C(=O)O)c(=O)c2cc(F)c(N)c([N+](=O)[O-])c21
IC50 (MCF7; cell growth, SRB; 72 h): 171 ± 15.8 µg/mL

Nc1ncnc2c1ncn2C1OC(CO)C2CC=CCC21 (mixture of isomers)
IC50 (PHA-stimulated human PBM cells, uninfected; cytotoxicity; 6 days): > 100 µM

CC(=O)Oc1ccc(/C=C/C(=O)Nc2nc(=O)n([C@@H]3O[C@H](C)[C@@H](OC(C)=O)[C@H]3OC(C)=O)cc2F)cc1
IC50 (NHDF; viability, MTT; 72 h): 96.5 ± 5.79 µM

A few entries again:
Nc1ccn(C2OC(CO)C3CC=CCC32)c(=O)n1 (mixture of isomers)
IC50 (PHA-stimulated human PBM cells, uninfected; cytotoxicity; 6 days): > 100 µM

CC(=O)O[C@@H]1[C@H](OC(C)=O)[C@@H](C)O[C@H]1n1cc(F)c(NC(=O)/C=C/c2ccc(O)c(O)c2)nc1=O
IC50 (NHDF; MTT; 72 h, 10% FBS): 163 ± 4.33 µM
